# Published values collected from several papers.
# Numbered parts are unrelated; each lists some results of a single study. Values joined by “and” are separate records of one study, mostly repeats; a detail may differ. Changes are numbered by the printed parent chain.

# Block 1
# Target: CCNF, cyclin fold, Cln2 fusion (human)
# Method: yeast growth competition, sequencing
# Matrix: yeast
# Setting: strong parent motif
# Reference: not given
# Reading: higher = stronger binding
# Parent: CDKN1A docking peptide (human); SKACRRLFGPVDS
Change,normalised enrichment score
SKACRRLHGPVDS [F8H],0.158
SKICRRLFGPVDS [A3I],8.34
SKACQRLFGPVDS [R5Q],0.592
SKACRRLFGPDDS [V11D],8.2
SKACRRLAGPVDS [F8A],0.151
SKACRKLFGPVDS [R6K],6.66
SKACRRLFGPVFS [D12F],6.98
SKACRRIFGPVDS [L7I],3.63
SKACRRLFAPVDS [G9A],7.57
SKACRRLFGPVYS [D12Y],7.43
SKACRRLNGPVDS [F8N],0.514

# Block 2
# Target: ABI1, truncated, D143A, DHFR fusion (Arabidopsis thaliana)
# Method: DHFR PCA, deep sequencing
# Matrix: yeast
# Setting: methotrexate growth selection, single substitutions
# Added: (+)-ABA 0.032 µM
# Reference: wild-type fitted maximum
# Reading: higher = stronger binding
# Parent: PYL1, truncated, DHFR fusion (Arabidopsis thaliana); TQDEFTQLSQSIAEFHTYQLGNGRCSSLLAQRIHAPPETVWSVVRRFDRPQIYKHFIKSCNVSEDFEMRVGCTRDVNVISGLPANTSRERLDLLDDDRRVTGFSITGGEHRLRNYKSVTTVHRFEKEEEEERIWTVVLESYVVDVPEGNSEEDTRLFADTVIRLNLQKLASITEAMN
Change,relative binding score [%]
D92M,1.42
F15S,0.179
F56A,-3.46
M176Q,7.14

# Block 3
# Target: Histone acetyltransferase KAT6A, both winged helices, GST fusion (KAT6A, Homo sapiens, UniProt Q92794, residues 1-181)
# Method: protein binding microarray
# Molecule type: double-stranded DNA, one strand shown
# Matrix: in vitro
# Concentration: not given
# Setting: 8-mer, flanks averaged, mean of 2 arrays, mostly near background
# Reference: not given
# Reading: higher = stronger binding
# Target sequence (chain): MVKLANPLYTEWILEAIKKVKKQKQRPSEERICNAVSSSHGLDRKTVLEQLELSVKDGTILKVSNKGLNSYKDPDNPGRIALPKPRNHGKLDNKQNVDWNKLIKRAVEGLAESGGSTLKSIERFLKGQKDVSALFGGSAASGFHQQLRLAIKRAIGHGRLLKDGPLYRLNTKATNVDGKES
Oligonucleotide,E-score
CCCTTGTA,-0.167
ACACGAGT,0.0527
ATACCCGA,0.162
ATACACGA,7e-05
TCACACCA,-0.117
AGCGCAGC,0.227
TAAAACCA,-0.0891
AAAAAAGA,-0.157
ACCTCCTA,-0.135
CTAGCAAG,-0.21
CTTGGGCA,-0.0208

# Single results of other studies
Molecule,target,assay,system,conditions,how to read,endpoint,result
"PhoQ, residues 284 288 289 292 302 303 AQGLTV","PhoP, residues 12 14 15 18 19 LWHCS (Escherichia coli, UniProt P23836)","Sort-seq, item: YFP reporter",E. coli,"PhoQ-PhoP variant library, added: 10 µM Mg2+","reference: high Mg2+ state, higher = stronger signaling",fold induction,1.36 and 1.65

# Some of these lines once more (block 3):
Oligonucleotide,E-score
ACACGAGT,0.0527
ATACACGA,7e-05
